Values quoted from earlier work, collected from citations in different studies.
Lines come from different studies, so protocols differ.
UniProt Q6DT37, sequence (whole entry, looked up): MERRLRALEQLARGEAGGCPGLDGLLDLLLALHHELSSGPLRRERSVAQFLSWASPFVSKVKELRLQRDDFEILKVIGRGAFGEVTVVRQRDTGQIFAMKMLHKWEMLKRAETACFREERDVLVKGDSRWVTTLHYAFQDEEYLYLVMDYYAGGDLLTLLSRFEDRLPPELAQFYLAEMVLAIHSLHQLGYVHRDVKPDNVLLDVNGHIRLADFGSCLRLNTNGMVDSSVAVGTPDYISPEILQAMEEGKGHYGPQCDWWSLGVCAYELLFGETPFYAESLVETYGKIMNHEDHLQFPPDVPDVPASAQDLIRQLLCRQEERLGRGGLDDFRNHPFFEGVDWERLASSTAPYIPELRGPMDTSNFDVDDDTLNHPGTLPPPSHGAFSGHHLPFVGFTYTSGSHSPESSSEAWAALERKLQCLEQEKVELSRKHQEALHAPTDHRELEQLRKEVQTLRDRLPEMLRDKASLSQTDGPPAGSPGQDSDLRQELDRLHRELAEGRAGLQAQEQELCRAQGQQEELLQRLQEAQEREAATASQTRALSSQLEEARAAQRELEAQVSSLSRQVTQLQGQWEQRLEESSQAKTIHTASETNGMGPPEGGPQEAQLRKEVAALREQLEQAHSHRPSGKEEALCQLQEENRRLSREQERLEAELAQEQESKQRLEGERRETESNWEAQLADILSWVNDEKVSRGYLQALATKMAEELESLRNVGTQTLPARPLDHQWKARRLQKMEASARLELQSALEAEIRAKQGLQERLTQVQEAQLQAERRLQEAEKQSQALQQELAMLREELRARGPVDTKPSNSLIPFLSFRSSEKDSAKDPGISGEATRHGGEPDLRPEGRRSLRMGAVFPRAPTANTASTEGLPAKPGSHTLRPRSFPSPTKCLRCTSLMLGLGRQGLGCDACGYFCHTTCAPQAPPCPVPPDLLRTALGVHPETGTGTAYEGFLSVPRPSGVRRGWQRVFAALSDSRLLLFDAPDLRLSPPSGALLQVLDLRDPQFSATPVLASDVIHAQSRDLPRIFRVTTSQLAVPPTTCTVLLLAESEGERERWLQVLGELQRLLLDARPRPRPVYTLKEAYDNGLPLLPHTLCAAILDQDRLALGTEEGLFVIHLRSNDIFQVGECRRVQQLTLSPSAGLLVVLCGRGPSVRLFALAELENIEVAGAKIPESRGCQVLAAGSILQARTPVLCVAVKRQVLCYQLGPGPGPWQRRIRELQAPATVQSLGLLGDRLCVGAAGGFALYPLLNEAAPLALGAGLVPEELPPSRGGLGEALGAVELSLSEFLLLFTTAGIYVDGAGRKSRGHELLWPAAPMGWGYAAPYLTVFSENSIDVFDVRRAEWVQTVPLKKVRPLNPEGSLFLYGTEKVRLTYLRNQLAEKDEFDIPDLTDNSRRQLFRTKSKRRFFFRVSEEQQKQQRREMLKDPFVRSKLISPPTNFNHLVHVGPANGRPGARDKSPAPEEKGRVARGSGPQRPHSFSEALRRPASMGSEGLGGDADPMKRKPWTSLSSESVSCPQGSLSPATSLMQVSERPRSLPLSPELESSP

Compound | target or system | assay | test system | conditions | scale | measurement | value
Cc1nn(C)cc1S(=O)(=O)NC(=O)c1ccc(-n2ccc(OCC(C)(C)C(F)(F)F)n2)nc1N1C[C@@H](C)CC1(C)C |  |  |  |  |  | absorption lag time | 2.17 h
C[C@@H]1CCO[C@H]2Cn3cc(C(=O)NCc4ccc(F)cc4F)c(=O)c(O)c3C(=O)N12 |  | population PK | treatment-naive adult patients |  |  | absorption rate constant | 2.24 h⁻¹
CCCCCCCCCCCCCCCC(=O)N[C@@H](CCC(=O)NCCCC[C@H](NC(=O)[C@H](C)NC(=O)[C@H](C)NC(=O)[C@H](CCC(N)=O)NC(=O)CNC(=O)[C@H](CCC(=O)O)NC(=O)[C@H](CC(C)C)NC(=O)[C@H](Cc1ccc(O)cc1)NC(=O)[C@H](CO)NC(=O)[C@H](CO)NC(=O)[C@@H](NC(=O)[C@H](CC(=O)O)NC(=O)[C@H](CO)NC(=O)[C@@H](NC(=O)[C@H](Cc1ccccc1)NC(=O)[C@@H](NC(=O)CNC(=O)[C@H](CCC(=O)O)NC(=O)[C@H](C)NC(=O)[C@@H](N)Cc1cnc[nH]1)[C@@H](C)O)[C@@H](C)O)C(C)C)C(=O)N[C@@H](CCC(=O)O)C(=O)N[C@@H](Cc1ccccc1)C(=O)N[C@H](C(=O)N[C@@H](C)C(=O)N[C@@H](Cc1c[nH]c2ccccc12)C(=O)N[C@@H](CC(C)C)C(=O)N[C@H](C(=O)N[C@@H](CCCNC(=N)N)C(=O)NCC(=O)N[C@@H](CCCNC(=N)N)C(=O)NCC(=O)O)C(C)C)[C@@H](C)CC)C(=O)O |  | one-compartment population PK model |  | fixed, previously estimated |  | absorption rate constant | 0.0704 h⁻¹
C[C@H](Cn1cnc2c(N)ncnc21)OCP(=O)(O)O |  |  |  | Simcyp input parameter |  | absorption rate constant | 1.03 h⁻¹
Nc1cc(C(F)(F)F)c(-c2nc(N3CCOCC3)nc(N3CCOCC3)n2)cn1 | CDC42BPG (Homo sapiens, UniProt Q6DT37) | enzyme activity |  | 10 µM | baseline: untreated | remaining activity | 81%
c1cnc2cc3c(cc2n1)[C@@H]1CNC[C@H]3C1 |  | PK model |  | oral |  | absorption rate constant | 1.03 h⁻¹
CCC(C)n1ncn(-c2ccc(N3CCN(c4ccc(OCC5COC(Cn6cncn6)(c6ccc(Cl)cc6Cl)O5)cc4)CC3)cc2)c1=O (stereo not shown) |  |  |  | first-order absorption model |  | absorption rate constant | 1.1 h⁻¹
CO[C@H]1C[C@@H]2CC[C@@H](C)[C@@](O)(O2)C(=O)C(=O)N2CCCC[C@H]2C(=O)O[C@H]([C@H](C)C[C@@H]2CC[C@@H](OCCO)[C@H](OC)C2)CC(=O)[C@H](C)/C=C(\C)[C@@H](O)[C@@H](OC)C(=O)[C@H](C)C[C@H](C)/C=C/C=C/C=C/1C |  |  | plasma | population PK two-compartment |  | absorption rate constant (ka) | 6.07 h⁻¹
CC1(C)CCC(CN2CCN(c3ccc(C(=O)NS(=O)(=O)c4ccc(NCC5CCOCC5)c([N+](=O)[O-])c4)c(Oc4cnc5[nH]ccc5c4)c3)CC2)=C(c2ccc(Cl)cc2)C1 |  | population pharmacokinetics |  |  |  | absorption rate constant | 0.155 h⁻¹
OC[C@H]1O[C@@H](Oc2cc3c(O)cc(O)cc3[o+]c2-c2cc(O)c(O)c(O)c2)[C@H](O)[C@@H](O)[C@@H]1O |  |  | solution | added: Fe3+ |  | absorption maximum | 664 nm

Some of these lines once more:
Compound | target or system | assay | test system | conditions | scale | measurement | value
CC1(C)CCC(CN2CCN(c3ccc(C(=O)NS(=O)(=O)c4ccc(NCC5CCOCC5)c([N+](=O)[O-])c4)c(Oc4cnc5[nH]ccc5c4)c3)CC2)=C(c2ccc(Cl)cc2)C1 |  | population pharmacokinetics |  |  |  | absorption rate constant | 0.155 h⁻¹
